Assay results pooled from the literature.
Compare with care: the assays were run in different laboratories.
Target: Cytochrome P450 2D6 (CYP2D6, Homo sapiens, UniProt P10635)
Chain of UniProt P10635 (whole entry, looked up): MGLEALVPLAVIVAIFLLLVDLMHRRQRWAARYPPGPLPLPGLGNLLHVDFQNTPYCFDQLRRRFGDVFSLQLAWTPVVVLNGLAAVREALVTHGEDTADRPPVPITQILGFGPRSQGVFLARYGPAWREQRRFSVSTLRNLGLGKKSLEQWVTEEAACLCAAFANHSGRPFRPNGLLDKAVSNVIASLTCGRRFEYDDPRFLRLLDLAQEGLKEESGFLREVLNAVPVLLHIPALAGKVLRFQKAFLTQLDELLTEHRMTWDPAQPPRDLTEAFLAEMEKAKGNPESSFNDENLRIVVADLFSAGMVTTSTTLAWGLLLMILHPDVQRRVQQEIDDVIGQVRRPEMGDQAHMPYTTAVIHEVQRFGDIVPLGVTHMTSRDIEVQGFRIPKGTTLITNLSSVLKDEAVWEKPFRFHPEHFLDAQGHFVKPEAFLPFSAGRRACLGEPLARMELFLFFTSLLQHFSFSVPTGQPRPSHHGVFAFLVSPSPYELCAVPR

The IC50 of `O=C(CN1CN(c2ccccc2)C2(CCN(C(=O)c3ccc4[nH]ncc4n3)CC2)C1=O)NCC(F)(F)F` is reported as 33 µM (enzyme activity, inhibitor).
`C=CC(=O)Nc1cc(Nc2nccc(-c3cn(C)c4ccccc34)n2)c(OCC(F)(F)F)nc1N(C)CCN(C)C` — result for “contribution to substrate depletion”: 0.343% (substrate; 3 µM, 60 min, 2D6 isoform, liver abundance-normalized).
`C=C(NC(=O)c1csc(-c2nc3c(cc2O)-c2nc(cs2)C(=O)NC(C(C)O)C(=O)NC(=C(C)OC)c2nc(cs2)C(=O)NC2c4nc(cs4)C(=O)NC(COC(=O)c4c5c6c(cccc6n4O)COC(=O)C(OC4CC(C)(O)C(N(C)C)C(C)O4)C2OC5)c2nc-3cs2)n1)C(N)=O` (stereo not shown) has a remaining activity of greater than 70% (enzyme activity, inhibitor, substrate cocktail; pooled human liver microsomes; up to 50 µM, pH 7.4).
`O=C(CN1CN(c2ccc(Cl)c(Cl)c2)C2(CCN(C(=O)c3ccc4[nH]ncc4c3)CC2)C1=O)NCC(F)(F)F` gave an IC50 of 1.8 µM (enzyme activity, inhibitor).
With `O=C(Nc1nc(C(F)(F)F)co1)C1c2ccccc2Oc2ccccc21` the IC50 was greater than 30 µM (enzyme activity, inhibitor; 2D6).
`CNC(=O)C1CCCN(C(=O)C2CC3CCC2N3C(=O)[C@@H]2C[C@@H](O)CN2C(=O)NCc2cccc(Cl)c2F)C1` (mixture of isomers) gave a remaining activity of 131% (enzyme activity, inhibitor, time-dependent inhibition; 50 µM, preincubated with NADPH; reference: negative control).
The inhibition of `Nc1nc(SCc2ccc(Cl)cc2)nn1S(=O)(=O)c1ccc2c(c1)CCO2` is reported as 38% (enzyme activity, inhibitor; human, liver microsomes; 10 µM).
The inhibition of `COC1C(c2ccc(Cl)c(Cc3ccc(OC4CCOC4)cc3)c2)OC(CO)C(O)C1O` (stereo not shown) is reported as 16.8% (enzyme activity, inhibitor; human, liver microsomes; 10 µM, 10 min).
With `O=C(CN1CN(c2ccccc2)C2(CCN(C(=O)c3cc4cn[nH]c4cn3)CC2)C1=O)NCC(F)(F)F` the IC50 was greater than 50 µM (enzyme activity, inhibitor).
The inhibition of `Cc1nc2ccc(S(=O)(=O)n3nc(SCc4ccc(Cl)cc4)nc3N)cc2s1` is reported as 32% (enzyme activity, inhibitor; human, liver microsomes; 10 µM).

A few entries again:
The inhibition of `COC1C(c2ccc(Cl)c(Cc3ccc(OC4CCOC4)cc3)c2)OC(CO)C(O)C1O` (stereo not shown) is reported as 16.8% (enzyme activity, inhibitor; human, liver microsomes; 10 µM, 10 min).
